Assay results from different studies.
Every numbered part comes from another study and shows a few of its results, in no order.

Series 1
Target: Interferon regulatory factor 7, full length, phosphomimetic (IRF7, Homo sapiens, UniProt Q92985, residues 1-503, S471D/S472D/S475D/S476D/S477D/S483D/S484D/S487D)
Method: protein-binding microarray
Molecule type: double-stranded DNA, one strand shown
Matrix: in vitro
Concentration: 2200 nM top
Setting: 60-bp whole probe
Added: salmon DNA 0.4 mg/ml
Relative to: random background probes
Direction: higher = stronger binding
All sequences stand within: GCCTAGCAC … GTCTTGATTCGCTTGACGCTGCTG
Construct (chain): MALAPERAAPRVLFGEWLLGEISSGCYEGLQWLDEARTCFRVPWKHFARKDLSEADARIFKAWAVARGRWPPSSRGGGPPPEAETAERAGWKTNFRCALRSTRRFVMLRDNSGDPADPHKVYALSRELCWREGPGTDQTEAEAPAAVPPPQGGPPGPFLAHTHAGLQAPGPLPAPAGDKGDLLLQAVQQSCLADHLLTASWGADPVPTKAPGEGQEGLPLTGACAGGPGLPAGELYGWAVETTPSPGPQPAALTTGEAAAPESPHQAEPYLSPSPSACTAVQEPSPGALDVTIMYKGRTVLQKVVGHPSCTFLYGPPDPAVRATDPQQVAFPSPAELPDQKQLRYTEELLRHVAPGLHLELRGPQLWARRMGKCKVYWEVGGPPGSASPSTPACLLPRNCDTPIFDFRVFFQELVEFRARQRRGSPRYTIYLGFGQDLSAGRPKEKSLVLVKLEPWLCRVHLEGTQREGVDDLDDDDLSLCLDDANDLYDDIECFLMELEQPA
`GACGATATCGGGTATCAAGACGTGCTA` — result for “fitted relative affinity”: -0.0557 z-score.
`TTTGATCTCAGACTGGATTAGTGCTAG` — result for “fitted relative affinity”: 0.281 z-score.
`TTAGGTATCGACGCTGGGTTAGTGCTA` — result for “fitted relative affinity”: -0.283 z-score.
Under “fitted relative affinity”, `AGTAGCTGGGATTACAGGCAGTGCTAG` is recorded as -0.747 z-score.
Under “fitted relative affinity”, `TTCGGTATCGGGTTTCGGTTAGTGCTA` is recorded as 4.51 z-score.
For `TTAGATTTCTGTTTCGATTAGTGCTAG`, “fitted relative affinity” read 6.33 z-score.
`TAGGCTCTGTGCTTTCCTGATGTGCTA`: “fitted relative affinity” 0.724 z-score.
`TCAGGTTTCGACTTTCGGTTAGTGCTA` — result for “fitted relative affinity”: 11 z-score.

Series 2
Target: Histone acetyltransferase KAT6A, winged helix 1, GST fusion (KAT6A, Homo sapiens, UniProt Q92794, residues 1-85)
Method: protein binding microarray
Molecule type: double-stranded DNA, one strand shown
Matrix: in vitro
Concentration: not given
Setting: 8-mer, flanks averaged, mean of 2 arrays, mostly near background
Relative to: not given
Direction: higher = stronger binding
Residues (chain): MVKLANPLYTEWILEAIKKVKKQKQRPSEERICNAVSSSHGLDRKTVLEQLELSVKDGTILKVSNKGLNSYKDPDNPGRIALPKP
For `ACTGACGC`, the E-score was 0.169.
With `ACCCGTGG` the E-score was 0.255.
`CATTGCCC` gave an E-score of -0.0774.
The E-score of `CGGCTGTC` is reported as 0.217.
`TATTCCGA` gave an E-score of 0.0192.
`GCGACAAC` gave an E-score of 0.0844.
`AGGGGTGA` has an E-score of -0.145.
With `GCGATTTA` the E-score was 0.135.

Single results of other studies
`Cc1cccc(-c2noc(-c3cn(CC(=O)Nc4cccc(C)c4C)c4nc(C)ccc4c3=O)n2)c1` has a remaining compound of 26.6% (mouse, microsomes or S9; 2 µM, 0.5 h).
The Vd of `O=C1CCC(N2Cc3cc(C4CCN(Cc5ccccc5)CC4)ccc3C2=O)C(=O)N1` (stereo not drawn) is reported as 9.43 L/kg (male CD-1 mouse, plasma; intravenous, 1 mg/kg).

Some of these lines once more (series 1):
For `TTAGATTTCTGTTTCGATTAGTGCTAG`, “fitted relative affinity” read 6.33 z-score.
`TCAGGTTTCGACTTTCGGTTAGTGCTA` — result for “fitted relative affinity”: 11 z-score.
`TAGGCTCTGTGCTTTCCTGATGTGCTA`: “fitted relative affinity” 0.724 z-score.
